Experimental data from different studies.
Lines come from different studies, so protocols differ. “And” joins repeats or separate records; there may be more than shown. Numbers after ± are the reported error.

`N#C[C@@]1(n2ccc(N)nc2=O)O[C@H](CO)[C@@H](O)[C@H]1O` gave a viability of 101% (Salmonella typhimurium; TA1535; 100 µM, without S9).
`CC(C)(C)c1sc2ncnc(Oc3c(F)cccc3OC(F)(F)F)c2c1-c1ccc(Cl)cc1`: mutagenicity “negative” (Salmonella typhimurium; mini-Ames; TA98, TA100; concentration not given, with and without S9).
For `CN(C)c1ccc(N=NS(=O)(=O)[O-])cc1.[Na+]`, the revertant colonies was 560 colonies/well and 544 colonies/well and 656 colonies/well (Salmonella typhimurium; Ames test; TA98; 10 µg/well, without S9).
For `CN(N=O)c1ccc(F)cc1`, “revertant colonies per plate” read 145 ± 28 (Salmonella typhimurium; mutagenicity, Ames plate incorporation; TA100; 50 µg/plate, 3 d, without S9, methanol).
`O=[N+]([O-])c1ccc(N2CCN(CCC(O)c3ccc(F)cc3)CC2)c(C(F)(F)F)c1` (stereo not drawn) gave a survival of 88.5% (Salmonella typhimurium; SOS/umu test; TA1535/pSK1002; 0.002 mg/mL, 4 h, with S9, full range).
With `CP(=O)(O)CCCN` the IC50 was 3.98 µM (Plasmodium falciparum; 3D7).
With `O=[N+]([O-])c1ccc(N2CCC(NCCC(O)c3ccc(F)c4ccccc34)CC2)c(C(F)(F)F)c1` (stereo not drawn) the induction factor was 0.9 (Salmonella typhimurium; SOS response, SOS/umu test; TA1535/pSK1002, TGA medium; 0.000122 mg/mL, 4 h, together with: 10% rat liver S9; reference: untreated).
`COc1cccc(-c2n[nH]c(SCc3ccccn3)n2)c1OC`: “revertant colonies per plate” 8 (Salmonella typhimurium; Ames test, plate incorporation; TA1535; 2.0 mg/plate, with rat liver S9).
For `CN(CC(C)(C)C)N=O`, “revertant colonies per plate” read 15 ± 10 (Salmonella typhimurium; mutagenicity, Ames plate incorporation; TA1537; 5000 µg/plate, without S9, methanol).
For `Cc1cc(C(=O)NC(C)(C)COc2cccc3c2C(N)=NS(=O)(=O)N3)cc(C)n1`, the revertant ratio was 1 (Salmonella typhimurium; Ames test, initial; TA98; 500 µg/plate, together with: rat liver S9; reference: solvent control).
With `Fc1ccc(C2=CCNCC2)cc1` the induction factor was 0.9 (Salmonella typhimurium; genotoxicity, SOS/umu test; TA1535/pSK1002; 0.002 mg/mL, 4 h, without S9, full range).
For `CC(=O)N1CCC(C(=O)N2CCN3C(=O)c4cc(-c5ccccc5)ccc4NC(=O)C3C2)CC1` (stereo not drawn), “fold increase in revertants” read 1 (Salmonella typhimurium; TA98; 158 µg/plate, together with: rat liver S9; reference: vehicle).
With `NC(=NCc1ccccc1)NC(=O)c1nc(Cl)c(N)nc1N` the IC50 was 0.501 µM (Plasmodium falciparum; 3D7).
`Nc1ccc2cc3ccccc3cc2c1` gave a revertant ratio of 5.3 (Salmonella typhimurium; Ames test, initial; TA1537; 2.0 µg/plate, together with: rat liver S9; reference: solvent control).
The survival of `OC(CCN1CC=C(c2ccc(F)cc2)CC1)c1ccc(F)c2ccccc12` (stereo not drawn) is reported as 53.6% (Salmonella typhimurium; SOS/umu test; TA1535/pSK1002; 0.125 mg/mL, 4 h, with S9, lower range).
For `CC(C)N(C)N=O`, “revertant colonies per plate” read 20.3 ± 3 (Salmonella typhimurium; mutagenicity, Ames plate incorporation; TA1535; 150 µg/plate, 3 d, without S9, methanol).
The survival of `O=[N+]([O-])c1ccc(NC2CCNCC2)c(C(F)(F)F)c1` is reported as 85.6% (Salmonella typhimurium; SOS/umu test; TA1535/pSK1002; 0.125 mg/mL, 4 h, without S9, full range).
For `Nc1c2ccccc2nc2ccccc12.Nc1c2ccccc2nc2ccccc12.O`, “mean revertants per plate” read 255 revertants/plate (Salmonella typhimurium; TA1537; 50 µg/plate, together with: without S9).

Excerpt of the above:
`COc1cccc(-c2n[nH]c(SCc3ccccn3)n2)c1OC`: “revertant colonies per plate” 8 (Salmonella typhimurium; Ames test, plate incorporation; TA1535; 2.0 mg/plate, with rat liver S9).
With `Fc1ccc(C2=CCNCC2)cc1` the induction factor was 0.9 (Salmonella typhimurium; genotoxicity, SOS/umu test; TA1535/pSK1002; 0.002 mg/mL, 4 h, without S9, full range).
